# Results gathered from unrelated publications.
# Each line is one published result; not all experiments were run side by side. Several values in a cell are separate wells, animals, samples, runs or records. ± gives the spread as reported.
Structure (SMILES),assay,system,setting,quantity,value
CN1CCCNC(=O)c2cccc(c2)C(=O)NCCCN(C)CCCNc2cccc3c2C(=O)c2cccc(c2C3=O)NCCC1,,"nude mice, serum","dose not given, 10 days",γ-GTP,< 3 U/L
CC(C)OCCOCc1ccc(OCC(O)CN(N=O)C(C)C)cc1 (stereo not drawn),"mutation spectrum, duplex sequencing","NMRI mouse, liver",concentration not given,T>C mutation fraction,increased
OCCn1nc(-c2ccccc2)c2c(Cl)c(-c3ccccc3)nnc21,,"mouse juvenile P6, plasma","intraperitoneal, 10 mg/kg",AUC,5.7 µM·h
COc1cccc(OC)c1-c1cc(C(=O)NC2(C(=O)O)C3CC4CC(C3)CC2C4)nn1-c1ccc(C(=O)NCCNC(=O)[C@H](CCCCNC(=O)[C@H](CC(C)C)NC(=O)C2OC2C(=O)O)NC(=O)CN2CCN(CC(=O)[O-])CCN(CC(=O)[O-])CCN(CC(=O)[O-])CC2)cc1C(C)C.[177Lu+3] (mixture of isomers),,"mouse, HT-29 xenograft, HT-29 tumour",72 h post injection,tissue uptake,3.6 %ID/g
O=C(Nc1ccc(C2CCCCC2)cc1)C1CC1,liver microsome stability,dog liver microsomes,1 µM,hepatic clearance,28 mL/min/kg
CCN(CC)c1ccc2c(c1)O[B-]1(c3ccc(C)cc3)OC(=O)C(c3ccccc3)=N[N+]1=C2 (stereo not drawn),,toluene,,fluorescence emission maximum,508 nm
[123I]c1ccc2nc(-c3ccc(-n4ccnn4)nc3)cn2c1,,"male Wistar rat, muscle","intravenous, 4 MBq, 14 h",tracer uptake,0.003 %ID/g
C=C(NC(=O)c1csc(-c2nc3c(cc2O)-c2nc(cs2)C(=O)NC(C(C)O)C(=O)NC(=C(C)OC)c2nc(cs2)C(=O)NC2c4nc(cs4)C(=O)NC(COC(=O)c4c5c6c(cccc6n4O)COC(=O)C(OC4CC(C)(O)C(N(C)C)C(C)O4)C2OC5)c2nc-3cs2)n1)C(N)=O (stereo not drawn),,"Sprague-Dawley rat, both sexes, plasma","intravenous infusion, 2 mg/kg single dose",volume of distribution,7.75 L/kg
O=C(Nc1cnccc1-c1ccc([18F])cc1)c1ccnc(NC(=O)C2CC2)c1,,"mice, transgenic, GSK-3β, early-stage, stomach","intravenous, dose not given, 120 min",SUV,0.31
Cc1nn(-c2nc3c(F)cc(F)cc3s2)c(O)c1C(c1ccc(C(F)(F)F)cc1)c1c(C)nn(-c2nc3c(F)cc(F)cc3s2)c1O,,"ICR mouse, plasma","intravenous, 5 mg/kg",AUC back-extrapolated observed,0.914% and 1.21% and 1.09%
Nc1ncc(-c2ccc([C@H]3[C@@H](F)[C@@H](F)C[C@@H](F)[C@H]3F)cc2)cn1,hepatocyte stability,cryopreserved rat hepatocytes,1 µM,hepatic clearance,10 mL/min/kg
O=C(CN1CN(c2ccccc2)C2(CCN(C(=O)c3ccc4[nH]ncc4n3)CC2)C1=O)NCC(F)(F)F,,human liver microsomes,,CLint,28 µL/min/mg protein
CC(C)CC(=O)Nc1ccc(C2CCCCC2)cc1,liver microsome stability,human liver microsomes,"1 µM, without NADPH",hepatic clearance,9.7 mL/min/kg
CN1CCC[C@]1(C)/C=C/S(=O)(=O)NC(=O)Nc1c2c(cc3c1CCC3)CCC2,item: laboratory investigations,human,"oral, 12.5 mg twice daily, 14 days, multiple ascending dose",subjects with adverse event,16.7%
O=C(CCC(F)(F)F)Nc1ccc([C@H]2[C@@H](F)[C@@H](F)C[C@@H](F)[C@H]2F)cc1,liver microsome stability,dog liver microsomes,1 µM,hepatic clearance,9.3 mL/min/kg
CC[C@H](C)[C@@H]1NC(=O)[C@H](Cc2ccc(O)cc2)NC(=O)CCCSC[C@@H](C(=O)N(CC(=O)N[C@@H](CC(C)C)C(=O)NCC(N)=O)Cc2ccc(F)cc2)NC(=O)[C@H](CC(N)=O)NC(=O)[C@H](CCC(N)=O)NC1=O,,"healthy human, plasma","intranasal, 200 µg every 3 h, after first dose",Cmax,0.127 ng/mL
O=C(COCC(F)F)Nc1ccc([C@H]2[C@@H](F)[C@@H](F)C[C@@H](F)[C@H]2F)cc1,liver microsome stability,mouse liver microsomes,1 µM,hepatic clearance,79 mL/min/kg
Cc1nc(N)nc2c1C(=O)N[C@@H](c1ccc(F)cc1-c1cccc(O[11CH3])n1)C2,ex vivo biodistribution,"mice, U87 subcutaneous xenograft, heart","60 min post-injection, baseline, vehicle pre-treatment",SUV,1.7 ± 0.1

# Excerpt of the above:
Structure (SMILES),assay,system,setting,quantity,value
CCN(CC)c1ccc2c(c1)O[B-]1(c3ccc(C)cc3)OC(=O)C(c3ccccc3)=N[N+]1=C2 (stereo not drawn),,toluene,,fluorescence emission maximum,508 nm
[123I]c1ccc2nc(-c3ccc(-n4ccnn4)nc3)cn2c1,,"male Wistar rat, muscle","intravenous, 4 MBq, 14 h",tracer uptake,0.003 %ID/g
